Results pooled from the literature.
Protocols differ between the studies behind these lines. ± gives the spread as reported.
G-protein coupled receptor 39: G-protein coupled receptor 39 (Mus musculus, UniProt Q5U431)
MC4R: Melanocortin receptor 4 (MC4R, Homo sapiens, UniProt P32245)
Voltage-gated sodium channel: Voltage-gated sodium channel (Musca domestica, UniProt Q25439)

With `CS(C)(=O)=Nc1ccc(-c2ccc(-c3nc4cc(O[C@@H]5CO[C@H]6[C@@H]5OC[C@H]6O)[nH]c4cc3F)cc2)cc1` the inhibition was -5% (ERN1 (Homo sapiens, UniProt O75460); enzyme activity, inhibitor; 10 µM).
`O=C(O)CCn1c(=O)oc2cc(Cl)c(Cl)cc21` gave an EC50 of over 100000 nM (ADRA2C (Homo sapiens, UniProt P18825); agonist).
`CCOC(=O)[C@](CC)(CCCSCCOCCOCCNC(=O)c1ccc(-c2c3ccc(=N)c(S(=O)(=O)O)c-3oc3c(S(=O)(=O)O)c(N)ccc23)c(C(=O)O)c1)NC(=O)c1ccc(C2CC2)c(Cc2ccc(F)cc2)n1` gave an EC50 of 30.2 nM (Cnr2 (Mus musculus, UniProt P47936); cAMP, agonist).
For `CCCCC/C=C\C/C=C\C/C=C\C/C=C\CCCC(=O)NCCc1ccc(O)c(O)c1`, the EC50 was 220 ± 50 nM (Trpv1 (Mus musculus, UniProt Q704Y3, E571A); ion current, agonist, whole-cell patch clamp; +80 mV, about 24 °C).
With `CCN(Cc1ccccc1)C(=O)CCc1nc(CN2CCN(C(=O)Cc3ccc(OC)c(OC)c3)CC2)no1` the EC50 was 760 ± 100 nM (KCNQ5 (Homo sapiens, UniProt Q9NR82); activation V1/2 shift, activator, whole-cell patch clamp; transfected cells, KV7.5 current).
The EC50 of `CC(CCC(=O)NCC(=O)O)C1CCC2C3CCC4CC(O)CCC4(C)C3CCC12C` (stereo not shown) is reported as over 200000 nM (G-protein coupled receptor 39; calcium signal, agonist, fluorescence).
The EC50 of `CN(C)[C@H](CNC(=O)/C=C/c1cccc2ccccc12)Cc1ccc(O)cc1` is reported as 8.5 ± 3.6 nM (Mu-type opioid receptor, with GoA (OPRM1, Homo sapiens, UniProt P35372); receptor activation, agonist).
`Cc1ccc(C)c(OCCn2cc(C(=O)O)c3ccccc32)c1` has an EC50 of 589 nM (CDC42 (Homo sapiens, UniProt P60953); GTP binding, flow cytometry bead; EDTA buffer, added: 100 nM BODIPY-GTP).
With `CC[C@H](C)[C@H](NC(=O)[C@H](Cc1ccccc1)NC(=O)[C@H](CCC(=O)O)NC(=O)[C@H](CCCNC(=N)N)NC(=O)[C@@H](NC(=O)[C@H](C)NC(=O)[C@H](CCC(=O)O)NC(=O)[C@H](CCC(=O)O)NC(=O)[C@H](CCC(=O)O)NC(=O)[C@H](CC(C)C)NC(=O)[C@H](Cc1ccc(O)cc1)NC(=O)[C@H](CCCCN)NC(=O)[C@H](CO)NC(=O)[C@H](CC(C)C)NC(=O)[C@H](CC(=O)O)NC(=O)[C@H](CO)NC(=O)[C@@H](NC(=O)[C@H](Cc1ccccc1)NC(=O)[C@@H](NC(=O)CNC(=O)[C@H](CCC(N)=O)NC(=O)[C@@H](CO)NC(=O)[C@@H](N)Cc1c[nH]cn1)[C@@H](C)O)[C@@H](C)O)C(C)C)C(=O)N[C@@H](C)C(=O)N[C@@H](Cc1c[nH]c2ccccc12)C(=O)N[C@@H](CC(C)C)C(=O)N[C@@H](CCCCN)C(=O)N[C@@H](CC(N)=O)C(=O)NCC(=O)NCC(=O)N1CCC[C@H]1C(=O)N[C@@H](CO)C(=O)N[C@@H](Cc1ccc(O)cc1)C(=O)N[C@@H](CO)C(=O)N[C@@H](CCSC)C(=O)N[C@@H](CCC(=O)O)C(=O)N[C@@H](Cc1c[nH]cn1)C(=O)N[C@@H](Cc1ccccc1)C(=O)N[C@@H](CCCNC(=N)N)C(=O)N[C@@H](Cc1c[nH]c2ccccc12)C(=O)NCC(=O)N[C@@H](CCCCN)C(=O)N1CCC[C@H]1C(=O)N[C@H](C(N)=O)C(C)C` the EC50 was 636 nM (MC4R; cAMP, agonist).
`CC1(C)C(C=C(Cl)Cl)C1C(=O)OCc1ccccc1` (stereo not shown) has an EC50 of over 50000 nM (Voltage-gated sodium channel; membrane potential, activator, FLIPR; HEK293 expressing house fly VGSC; extrapolated).
For `CCCC[C@H](NC(C)=O)C(=O)N[C@H]1CCC(=O)NCCC[C@@H](C(=O)N[C@@H](C(=O)N2CCC[C@@H]2C(N)=O)C(C)C)NC(=O)[C@H](Cc2c[nH]c3ccccc23)NC(=O)[C@H](CCCNC(=N)N)NC(=O)[C@@H](Cc2ccc(F)cc2)NC(=O)[C@@H]2CCCN2C1=O`, the EC50 was 0.36 nM (MC4R; cAMP, agonist).
With `CC1(C)C(C=C(Cl)Cl)C1C(=O)OCc1c(F)ccc(F)c1F` (stereo not shown) the EC50 was 4890 nM (Voltage-gated sodium channel; membrane potential, activator, FLIPR; HEK293 expressing house fly VGSC).
`Cc1cc(O)cc(C)c1C[C@H](N)C(=O)N[C@H](CCCNC(=N)N)C(=O)N[C@@H](Cc1ccccc1)C(=O)N(C)CC(=O)N(C)Cc1cc(C(F)(F)F)cc(C(F)(F)F)c1` gave an EC50 of 3.38 ± 1.81 nM (OPRD1 (Homo sapiens, UniProt P41143, Y129F); agonist).
`CC(C)[C@H](NC(=O)[C@@H]1CSSC(C)(C)[C@H](NC(=O)[C@@H](N)CC(=O)O)C(=O)N[C@@H](Cc2ccccc2)C(=O)N[C@@H](Cc2c[nH]c3ccccc23)C(=O)N[C@@H](CCCCN)C(=O)N[C@@H](Cc2ccc(O)cc2)C(=O)N1)C(=O)O` gave an EC50 of 2.51 nM (UTS2R (Homo sapiens, UniProt Q9UKP6, L156A); IP1 accumulation, agonist, HTRF; HEK293T cells; 1 h, 37 °C).
`COc1ccccc1-c1n[nH]c2nc(NC3CCN(C(=O)Cc4ccc(F)cc4F)CC3)ncc12` has a relative abundance of 1.34 (bead binding, competition bead pull-down, refers to: LINJ.21.2130; Leishmania donovani axenic amastigote extract; 10 µM; relative to: vehicle).
`CC1(C)C(C=C(Cl)Cl)C1C(=O)OCc1ccc(F)cc1` (stereo not shown) gave an EC50 of over 50000 nM (Voltage-gated sodium channel; membrane potential, activator, FLIPR; HEK293 expressing house fly VGSC; extrapolated).
For `COC1C2(O)C(=O)N3C=CC(C)(C)c4[nH]c5ccccc5c4C=C3C(=O)N2C23C(C)C(C)(C)N2c2ccccc2C13O` (stereo not shown), the EC50 was 3720 nM (uncharacterized protein (Ixodes scapularis, UniProt A0A0N9E2I2); ion current, agonist, two-electrode voltage clamp; Xenopus oocytes; holding potential -100 mV; relative to: 1 mM L-glutamate response).
For `CC(CCC(=O)NCC(=O)O)C1CCC2C3C(O)CC4CC(OS(=O)(=O)O)CCC4(C)C3CC(O)C12C` (stereo not shown), the EC50 was over 200000 nM (G-protein coupled receptor 39; calcium signal, agonist, fluorescence).
For `O=C1NC2(CC2)COc2ncc(F)cc2[C@H]2COCCN2c2ccn3ncc1c3n2`, “organ-to-body weight ratio” read 0.135 ± 0.03% (Sprague-Dawley rat, female, thymus; oral, 10 mg/kg/day, 4 weeks dosing, end of recovery).

For quick reference, copied from above:
With `CCN(Cc1ccccc1)C(=O)CCc1nc(CN2CCN(C(=O)Cc3ccc(OC)c(OC)c3)CC2)no1` the EC50 was 760 ± 100 nM (KCNQ5 (Homo sapiens, UniProt Q9NR82); activation V1/2 shift, activator, whole-cell patch clamp; transfected cells, KV7.5 current).
`Cc1cc(O)cc(C)c1C[C@H](N)C(=O)N[C@H](CCCNC(=N)N)C(=O)N[C@@H](Cc1ccccc1)C(=O)N(C)CC(=O)N(C)Cc1cc(C(F)(F)F)cc(C(F)(F)F)c1` gave an EC50 of 3.38 ± 1.81 nM (OPRD1 (Homo sapiens, UniProt P41143, Y129F); agonist).
